Published values collected from several papers.
Parts stem from different laboratories: compare values within a part only. Substitutions count along the parent as printed.
Chain of UniProt Q9C098 (whole entry, looked up): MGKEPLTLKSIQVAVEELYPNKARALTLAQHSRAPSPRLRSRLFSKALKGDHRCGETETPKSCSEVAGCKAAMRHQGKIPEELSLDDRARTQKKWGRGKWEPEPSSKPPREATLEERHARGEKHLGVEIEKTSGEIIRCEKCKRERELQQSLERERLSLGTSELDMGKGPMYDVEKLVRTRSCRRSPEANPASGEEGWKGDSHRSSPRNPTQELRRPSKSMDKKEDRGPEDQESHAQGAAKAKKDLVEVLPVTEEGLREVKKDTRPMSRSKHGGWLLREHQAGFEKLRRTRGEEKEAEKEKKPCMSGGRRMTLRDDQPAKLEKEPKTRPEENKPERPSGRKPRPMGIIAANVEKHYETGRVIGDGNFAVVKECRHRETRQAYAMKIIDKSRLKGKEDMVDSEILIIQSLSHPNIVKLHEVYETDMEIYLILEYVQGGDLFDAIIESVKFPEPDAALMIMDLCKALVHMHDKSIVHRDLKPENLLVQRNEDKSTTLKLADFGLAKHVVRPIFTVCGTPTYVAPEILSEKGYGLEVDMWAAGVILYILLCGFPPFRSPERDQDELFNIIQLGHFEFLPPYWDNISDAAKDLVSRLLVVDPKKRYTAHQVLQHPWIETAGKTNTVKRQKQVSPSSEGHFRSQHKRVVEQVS
Chain of UniProt Q04759 (whole entry, looked up): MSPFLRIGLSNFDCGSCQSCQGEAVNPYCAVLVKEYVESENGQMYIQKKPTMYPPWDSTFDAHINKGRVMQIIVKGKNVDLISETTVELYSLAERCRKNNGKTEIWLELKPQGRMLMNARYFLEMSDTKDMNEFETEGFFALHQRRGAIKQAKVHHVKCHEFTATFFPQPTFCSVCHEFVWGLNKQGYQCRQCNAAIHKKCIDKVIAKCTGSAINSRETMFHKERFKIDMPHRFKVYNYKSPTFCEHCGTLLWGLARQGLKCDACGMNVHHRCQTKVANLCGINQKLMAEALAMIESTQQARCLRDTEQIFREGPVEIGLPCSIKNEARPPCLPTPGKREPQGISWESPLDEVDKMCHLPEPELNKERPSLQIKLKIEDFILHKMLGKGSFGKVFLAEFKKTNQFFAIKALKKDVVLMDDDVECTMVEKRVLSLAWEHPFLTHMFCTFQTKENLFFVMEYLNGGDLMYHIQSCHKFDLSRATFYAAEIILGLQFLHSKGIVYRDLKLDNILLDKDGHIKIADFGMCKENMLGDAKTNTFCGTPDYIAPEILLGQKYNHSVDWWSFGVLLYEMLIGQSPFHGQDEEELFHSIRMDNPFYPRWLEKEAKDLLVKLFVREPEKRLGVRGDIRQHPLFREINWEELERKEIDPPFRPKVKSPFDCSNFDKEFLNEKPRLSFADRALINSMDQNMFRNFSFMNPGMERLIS

Set 1
Target: DDIT3, bZIP domain (human)
Technique: DHFR protein complementation
Sample: yeast
Notes: single substitutions, most at no-binding floor
Relative to: wild-type JUN-FOS pair
Direction: higher = stronger binding
Parent: JUN, bZIP domain (human); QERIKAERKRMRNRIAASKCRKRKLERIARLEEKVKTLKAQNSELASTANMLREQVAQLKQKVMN; partner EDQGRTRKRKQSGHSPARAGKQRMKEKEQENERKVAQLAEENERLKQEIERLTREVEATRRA
Change | binding fitness [natural log]
A57M | 0.000361
Q55A | 0.0206
N42R | -0.244
A49F | -0.577
A46M | 0.13
N42M | -1.14
K34Q | 0.113
T48K | 0.117

Set 2
Target: Fragile X messenger ribonucleoprotein 1, C-terminal low-complexity region (Fmr1, Mus musculus, UniProt P35922)
Technique: RNA Bind-n-Seq
Form: RNA
Sample: in vitro
Concentration: 200 nM
Notes: whole 134-nt RNA, ends assumed
With: 150 mM KCl
Relative to: input library
Direction: higher = stronger binding
Shared flanks, not repeated: GGGAGUUCUACAGUCCGACGAUC … UGGAAUUCUCGGGUGUCAAGG
Sequence | log2 enrichment
AAGUCCUGUGCUACACAUCGUAUGUACCGAAUCGGAAAGGAAAAAGGAAAAAAAGGAAAGUAUUAUGUUACGCCGUUCGGAUCUGCACUU | -0.914
UCCUGUGCUACACAUCGUAUGUACCGAAUCGGGGUUUUUGGGGUUUUUGGGGUUUGGGGAAAGUAUUAUGUUACGCCGUUCGGAUCUGCA | 0.882
AGUCCUGUGCUACACAUCGUAUGUACCGAAUCGGGGUGGGGAGGGGUUUUUUUGGGGAAAGUAUUAUGUUACGCCGUUCGGAUCUGCACU | 0.943
CCUGUGCUACACAUCGUAUGUACCGAAUCGGGUUUUUUUGGUUUUUUUGGGGUUUUUUUGGAAAGUAUUAUGUUACGCCGUUCGGAUCUG | -0.877
CACAGACAACACGCACCCACACAGACACAGAGGGAAGGGGUUGGGAUGGGGACAGGGUGCACAGCAGGGCGGGGAAGGACCCCAGCCCCU | 1.26
UCCUCAAGUCCUGUGCUACACAUCGUAUGUACCGAAUCGGUGGGGUGGGUGGAAAGUAUUAUGUUACGCCGUUCGGAUCUGCACUUCCAG | 0.364
UCCUGUGCUACACAUCGUAUGUACCGAAUCGGGUUUUUUGGGUUUUUUGGGGUUUUUUGGAAAGUAUUAUGUUACGCCGUUCGGAUCUGC | 0.233
UAACUUUAGAGGGGGAUCUGAUGGAUAUGGCAGUGGACGUGGAUUUGGGGAUGGCUAUAAUGGGUAUGGAGGAGGACCUGGAGGUGGCAA | 0.445

Other studies, line by line
SMILES | target | assay | conditions | scale | measurement | value
Cc1ccc(S(=O)(=O)/C=C/C#N)cc1 | Protein kinase C theta type (PRKCQ, Homo sapiens, UniProt Q04759) | enzyme activity, inhibitor | 0.5 µM | relative to: control | remaining activity | 100%
CNCc1ccccc1-c1csc([C@@H](C)Nc2nc(C)nc3cc(OC)c(OC)cc23)c1 | Serine/threonine-protein kinase DCLK3 (DCLK3, Homo sapiens, UniProt Q9C098) | cell-free assay, competition with immobilised ligand | 1 µM | – | remaining binding | 95%

Repeated from above (set 2):
Sequence | log2 enrichment
AAGUCCUGUGCUACACAUCGUAUGUACCGAAUCGGAAAGGAAAAAGGAAAAAAAGGAAAGUAUUAUGUUACGCCGUUCGGAUCUGCACUU | -0.914
UAACUUUAGAGGGGGAUCUGAUGGAUAUGGCAGUGGACGUGGAUUUGGGGAUGGCUAUAAUGGGUAUGGAGGAGGACCUGGAGGUGGCAA | 0.445
